Results of several laboratories.
Each numbered part is a random draw from the data of one study; scales do not carry over between parts. Changes are numbered by the printed parent chain.

Series 1
Target: CCNA1, cyclin fold, Cln2 fusion (human)
Technique: yeast growth competition, sequencing
Matrix: yeast
Setting: weak parent motif
Baseline: not given
Reading: higher = stronger binding
Starting sequence: WEE1 docking peptide (human); HKTFRKLRLFDTP
| Change | normalised enrichment score |
| --- | --- |
| HQTFRKLRLFDTP [K2Q] | 0.269 |
| HKTFPKLRLFDTP [R5P] | -0.226 |
| HKTFRKLRLFDTQ [P13Q] | 0.224 |
| HKTFRQLRLFDTP [K6Q] | 0.309 |
| HKTDRKLRLFDTP [F4D] | 0.242 |
| NKTFRKLRLFDTP [H1N] | 0.366 |
| HKTFRKLRNFDTP [L9N] | 0.3 |

Series 2
Target: Ras GTPase-activating protein-binding protein 1, C-terminal RGG region (G3BP1, Homo sapiens, UniProt Q13283)
Sequence of UniProt Q13283 (whole entry, looked up): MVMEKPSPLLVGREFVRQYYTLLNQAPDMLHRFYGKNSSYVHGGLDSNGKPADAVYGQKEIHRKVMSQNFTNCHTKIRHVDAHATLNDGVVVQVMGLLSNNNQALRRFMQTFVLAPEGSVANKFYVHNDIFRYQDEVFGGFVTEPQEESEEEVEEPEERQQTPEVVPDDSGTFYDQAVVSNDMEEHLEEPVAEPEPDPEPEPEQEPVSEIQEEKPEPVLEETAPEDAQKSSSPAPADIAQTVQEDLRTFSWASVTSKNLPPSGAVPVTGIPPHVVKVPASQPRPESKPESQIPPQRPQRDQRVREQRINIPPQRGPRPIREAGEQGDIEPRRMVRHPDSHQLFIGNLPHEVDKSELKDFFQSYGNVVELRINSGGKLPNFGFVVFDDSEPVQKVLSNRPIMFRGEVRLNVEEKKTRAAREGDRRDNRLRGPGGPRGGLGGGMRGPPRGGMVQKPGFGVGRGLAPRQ
Technique: RNA Bind-n-Seq
Form: RNA
Matrix: in vitro
Concentration: 1 µM
Setting: whole 134-nt RNA, ends assumed
With: 150 mM KCl
Baseline: input library
Reading: higher = stronger binding
All sequences stand within: GGGAGUUCUACAGUCCGACGAUC … UGGAAUUCUCGGGUGUCAAGG
| Strand | log2 enrichment |
| --- | --- |
| CACAGACAACACGCACCCACACAGACACAGAGGGAAGGGGUUGGGAUGGGGACAGGGUGCACAGCAGGGCGGGGUAGCACCCCAGCCCCU | -0.601 |
| CAAGUCCUGUGCUACACAUCGUAUGUACCGAAUCGGCCCGGCCCGGGGCCCGGGGAAAGUAUUAUGUUACGCCGUUCGGAUCUGCACUUC | -1.63 |
| CCUCAAGUCCUGUGCUACACAUCGUAUGUACCGAAUCGGGAGGGAGGGAGGGAAAGUAUUAUGUUACGCCGUUCGGAUCUGCACUUCCAG | 2.67 |
| UCCUGUGCUACACAUCGUAUGUACCGAAUCGGGUUUUUUUGGGAAAGGGUUUUUUUGGGAAAGUAUUAUGUUACGCCGUUCGGAUCUGCA | -0.38 |
| CCUGUGCUACACAUCGUAUGUACCGAAUCGGGAAAAAAGGGGAAAAAAGGGAAAAAAGGGAAAGUAUUAUGUUACGCCGUUCGGAUCUGC | -1.65 |
| AAGUCCUGUGCUACACAUCGUAUGUACCGAAUCGGGAAAAGGGGAAAAGGGAAAAGGAAAGUAUUAUGUUACGCCGUUCGGAUCUGCACU | -1.26 |
| UCAAGUCCUGUGCUACACAUCGUAUGUACCGAAUCGGUUUGGGUUUGGGUUUGGAAAGUAUUAUGUUACGCCGUUCGGAUCUGCACUUCC | -0.883 |
| CCUGUGCUACACAUCGUAUGUACCGAAUCGGUUUUUUUGGUUUUUUUGGUUUUUUUGGGGAAAGUAUUAUGUUACGCCGUUCGGAUCUGC | -1.95 |
| UGGCAGGUGGAUUUUGUUUAUUUUUUUAGCUCAUUUCCAGGGGUGGGAAUUUUUUUUUAAUAUGUGUCAUGAAUAAAGUUGUUUUUGAAA | 3.79 |

Series 3
Target: RNA binding protein fox-1 homolog 2, RRM domain, GST-SBP tag (RBFOX2, Homo sapiens, UniProt O43251-10, residues 100-194)
Technique: RNA Bind-n-Seq
Form: RNA
Matrix: in vitro
Concentration: 365 nM
Setting: natural RNA segment, single round, ends assumed
Baseline: no-protein control
Reading: higher = stronger binding
All sequences stand within: GGGAGUUCUACAGUCCGACGAUC … UGGAAUUCUCGGGUGCCAA
| Strand | RBNS enrichment (R) |
| --- | --- |
| UUUUCUGAACCAGUUCUUUUUCUUGGGGUAGAGCGUGAAAUCCAGACCUGUUUUUGAAAGGACAGCACAGGAGGAGAAAAGUGACUGGGACGAUGCUUCCUCUCAUCCAA | 0.703 |
| CUUGACGCAGUGUGUUUUAGGUGUUUGUCUUUGUACUUUUUUGUGAUUUUUGAAUGCACGUGCGCAGGAAGGGCUCCUCUUAGAGAAGCAGUCAAACUGUGAAGCACUAA | 8.09 |
| GGGAGAACCUUAGACACUUCACCAAAUUCUGCAAUGACAGCUGGGGUAUUUUAAAGUUUAUGAUGAAGUAUUCUUUUUAUAUUCUUAAAUAUAAACUUGGAAAGGCAUUU | 0.471 |
| AACAGUAAUGUUGAUUUCUAGUUAUUUAUUCUGGGAAUGUAUAGUAUUUGAAAACAGAAAUUGGUACCUUGCACACAUCAUCUGUAAACUGUUCAGUUUAAAAUACUGUA | 1.28 |
| UGUGGGAGGGUAAGACAAUAUGAACAAACUAUGAUCACAGUGACUUUACAGGAGGUUGUGGAUGCUCCAGGGCAGCCUCCACCUUGCUCUUCUUUCUGAGAGUUGGCUCA | 0.626 |
| CCUAAGAAGAUGGAUGUCCUCAAAAGAGAAGGAACAAACCUCCUUGGGAAUCCACAUUUUUUGGGGGAAUGGAAAAGCUCUGUCUCCCUAACUCAACUGCUUUGCAAGGG | 0.432 |
| CUAGUAUCCAUGACCAAACUAUCCCUGACACAUGAGGACAGGGGCCUCUUCUGGCUGUCAGGAGCAAAGCCUGAAGACUUGGAGCUGCAGGACUGGAAGAACAGUGGAGC | 0.929 |

Mixed results
| Molecule | target | test | test system | setting | scale | measurement | value |
| --- | --- | --- | --- | --- | --- | --- | --- |
| PhoQ, residues 284 288 289 292 302 303 NLAAMI | PhoP, residues 12 14 15 18 19 NQGLL (Escherichia coli, UniProt P23836) | Sort-seq, measured: YFP reporter | E. coli | PhoQ-PhoP variant library, with: 10 µM Mg2+ | baseline: high Mg2+ state, higher = stronger signaling | fold induction | 4.85 |

Excerpt of the above (series 2):
| Strand | log2 enrichment |
| --- | --- |
| UCAAGUCCUGUGCUACACAUCGUAUGUACCGAAUCGGUUUGGGUUUGGGUUUGGAAAGUAUUAUGUUACGCCGUUCGGAUCUGCACUUCC | -0.883 |
| CCUGUGCUACACAUCGUAUGUACCGAAUCGGUUUUUUUGGUUUUUUUGGUUUUUUUGGGGAAAGUAUUAUGUUACGCCGUUCGGAUCUGC | -1.95 |
| UGGCAGGUGGAUUUUGUUUAUUUUUUUAGCUCAUUUCCAGGGGUGGGAAUUUUUUUUUAAUAUGUGUCAUGAAUAAAGUUGUUUUUGAAA | 3.79 |
